# Assay results of several laboratories.
# Compare with care: the assays were run in different laboratories.
Structure (SMILES),test,system,conditions,tmax [h]
O=C(COc1ccc(Cl)cc1)NC12CC(c3nnc([C@H]4C[C@@H](OC(F)(F)F)C4)o3)(C1)C2,,"healthy human both sexes, plasma","oral, 145 mg once daily, day 1, median fasted",23.9
Cc1cc(Nc2ccc(S(F)(F)(F)(F)F)cc2)n2nc(C(C)(F)F)nc2n1,LC-MS/MS,"human vivax malaria patients, plasma","oral, 600 mg, median",6
C[C@H](O)c1cc(C(=O)N[C@@H](C)Cn2ccc(-c3ccc(C#N)c(Cl)c3)n2)n[nH]1,,"healthy male human, plasma","intravenous infusion, 100 µg 14C-labelled, 15 min infusion, microtracer, median",0.25
CNC(=O)n1ccc2cc(Oc3ccnc(NC(=O)c4ccc(C5CCN(CCO)CC5)cc4)c3)c(OCCOC)cc21,,"healthy human, plasma","oral, 35 mg, median, added: rabeprazole 20 mg",6
O=C(Nc1cnccc1Cl)N1CCN(Cc2ccc3c(c2)OC(F)(F)O3)CC1,,"human healthy young men, plasma","oral, 25 mg once daily, day 10, multiple dose median",1.25
Cc1ccc([C@@H]2O[C@H](CO)[C@@H](O)[C@H](O)[C@H]2O)cc1Cc1ccc(-c2ccc(F)cc2)s1,,"human, maintenance hemodialysis patients","oral, 300 mg once daily, steady state, mean",2.7
N#Cc1ccc2c(c1)[C@H]1CCCN(C(=O)c3ccc4[nH]cnc4c3)[C@H]1C2,,"human, plasma","oral, 240 mg once daily, after first dose, median",1
COc1cc(N2CCC(N3CCN(C)CC3)CC2)ccc1Nc1ncnc(Nc2ccccc2S(=O)(=O)C(C)C)n1,,"human, plasma","oral, 325 mg, day 1",4.52

# Excerpt of the above:
Structure (SMILES),test,system,conditions,tmax [h]
O=C(COc1ccc(Cl)cc1)NC12CC(c3nnc([C@H]4C[C@@H](OC(F)(F)F)C4)o3)(C1)C2,,"healthy human both sexes, plasma","oral, 145 mg once daily, day 1, median fasted",23.9
